Experimental data gathered from unrelated publications.
Numbered parts are unrelated; each lists some results of a single study.

Set 1
Target: Sal-like protein 4, full length isoform B (SALL4, Homo sapiens, UniProt Q9UJQ4-2, residues 1-616)
Method: universal PBM
Molecule type: double-stranded DNA, one strand shown
Medium: in vitro
Concentration: not given
Setting: 8-mer, flanks averaged, mean of replicates
Reading: higher = stronger binding
Residues (chain): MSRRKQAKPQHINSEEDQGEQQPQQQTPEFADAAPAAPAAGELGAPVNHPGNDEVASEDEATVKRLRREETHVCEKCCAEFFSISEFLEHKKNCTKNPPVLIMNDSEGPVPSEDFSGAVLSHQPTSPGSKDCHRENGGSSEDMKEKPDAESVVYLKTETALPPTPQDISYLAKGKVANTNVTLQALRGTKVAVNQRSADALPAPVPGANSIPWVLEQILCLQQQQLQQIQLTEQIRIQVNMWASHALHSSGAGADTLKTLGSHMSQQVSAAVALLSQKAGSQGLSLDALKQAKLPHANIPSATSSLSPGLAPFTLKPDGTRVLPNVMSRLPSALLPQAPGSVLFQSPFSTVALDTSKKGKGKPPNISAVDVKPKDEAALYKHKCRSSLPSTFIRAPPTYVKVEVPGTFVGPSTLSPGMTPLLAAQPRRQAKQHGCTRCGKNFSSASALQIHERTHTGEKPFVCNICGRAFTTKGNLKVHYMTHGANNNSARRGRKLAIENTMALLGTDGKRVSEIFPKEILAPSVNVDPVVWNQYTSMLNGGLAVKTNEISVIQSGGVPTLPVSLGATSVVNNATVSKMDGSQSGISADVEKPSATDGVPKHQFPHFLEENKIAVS
| Oligonucleotide | E-score |
| --- | --- |
| CGCCTGCA | -0.282 |
| ACTGTACT | -0.0069 |
| ATCGATCC | -0.0993 |
| GACCAGAC | -0.21 |
| ACATTACT | 0.245 |
| AGACCGAG | -0.239 |

Set 2
Target: RING finger protein unkempt homolog, zinc fingers 1-6, GST-SBP tag (UNK, Homo sapiens, UniProt Q9C0B0, residues 30-357)
Chain of UniProt Q9C0B0 (30-357, looked up): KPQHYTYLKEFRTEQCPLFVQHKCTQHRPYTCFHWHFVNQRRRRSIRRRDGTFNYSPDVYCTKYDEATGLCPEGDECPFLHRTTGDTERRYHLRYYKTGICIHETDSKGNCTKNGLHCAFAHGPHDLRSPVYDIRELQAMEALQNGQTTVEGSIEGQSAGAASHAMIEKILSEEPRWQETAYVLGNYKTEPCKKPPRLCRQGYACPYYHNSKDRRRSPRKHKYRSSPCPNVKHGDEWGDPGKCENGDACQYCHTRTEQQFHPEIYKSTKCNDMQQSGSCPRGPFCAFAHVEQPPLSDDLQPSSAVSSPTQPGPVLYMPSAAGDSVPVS
Method: RNA Bind-n-Seq
Molecule type: RNA
Medium: in vitro
Concentration: not given
Setting: RNA with constant flanks, human-mouse chimeric sites, ends assumed
Baseline: input RNA pool
Reading: higher = stronger binding
| Oligonucleotide | bound/input enrichment |
| --- | --- |
| GGGAGUUCUACAGUCCGACGAUCGCUCCUCUUCCGCACUCAGCCUGGGGACACUGGGCUGGGACCAGAAUCCAGCUUUCUUUUAAAACUCUCAGUGUAACUGUAUCCCGUGACAUUUCAUUUUUUUUUUAUAGUGUAUUUUUUCAACAGAGGAUUGAGCAUCA | 11.8 ratio |
| GGGAGUUCUACAGUCCGACGAUCAUAAAAGCUAUGUUGAGUGGUCCAGGUCAGUUUGCUGAGAAUGAAACCAAUGAGGUCAAUUUUAGAGAGAUCCCCUCACAUGUGCUAUCAAAAGUGUGCAUGUAUUUUACCUACAAGGUCCAACAGAGGAUUGAGCAUCA | 0.182 ratio |
| GGGAGUUCUACAGUCCGACGAUCCCUGCUCAGAUCACCAUGAAAGUAAUCCAAGGCCUAUACAGUGGGGUCACCACAGUGGAACUAGAUACCCUGGCUGCUGAGACAGCCGCGACCUUGACCACGAAGCACCCUGACUAUGCCCAACAGAGGAUUGAGCAUCA | 0.163 ratio |
| GGGAGUUCUACAGUCCGACGAUCAUGGAGAAGGAUUCUCUGCCCCGCUUUGUGCGCUCUGAAUUUUAUAAGGAGCUAAUCAAGUAGUAAUCUGGUCAGGCUUCCAAAAGUUCCUGUGAGUGUUGAGUUACAUCCUUUGUAGCACAACAGAGGAUUGAGCAUCA | 0.227 ratio |

Set 3
Target: Interferon regulatory factor 7, full length, phosphomimetic (IRF7, Homo sapiens, UniProt Q92985, residues 1-503, S101K/S471D/S472D/S475D/S476D/S477D/S483D/S484D/S487D)
Method: protein-binding microarray
Molecule type: double-stranded DNA, one strand shown
Medium: in vitro
Concentration: 250 nM
Setting: 60-bp whole probe
Added: salmon DNA 0.4 mg/ml
Baseline: random background probes
Reading: higher = stronger binding
All sequences stand within: GCCTAGCAC … GTCTTGATTCGCTTGACGCTGCTG
Target sequence (chain): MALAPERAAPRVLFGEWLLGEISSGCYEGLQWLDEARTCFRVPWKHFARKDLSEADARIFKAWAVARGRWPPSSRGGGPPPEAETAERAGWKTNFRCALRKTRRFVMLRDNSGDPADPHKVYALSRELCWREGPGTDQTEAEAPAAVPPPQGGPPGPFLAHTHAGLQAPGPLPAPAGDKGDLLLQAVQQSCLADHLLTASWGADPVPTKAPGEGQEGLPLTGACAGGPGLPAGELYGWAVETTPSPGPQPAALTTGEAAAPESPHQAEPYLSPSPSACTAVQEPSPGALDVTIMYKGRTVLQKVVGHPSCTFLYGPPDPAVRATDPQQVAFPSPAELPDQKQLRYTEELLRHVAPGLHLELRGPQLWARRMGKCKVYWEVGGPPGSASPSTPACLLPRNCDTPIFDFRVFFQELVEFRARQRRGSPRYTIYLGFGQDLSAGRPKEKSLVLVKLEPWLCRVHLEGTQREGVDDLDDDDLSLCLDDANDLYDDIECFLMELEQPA
| Oligonucleotide | log fluorescence |
| --- | --- |
| TTGGATCTCAGTCTCGATTAGTGCTAG | 1.35 z-score |
| TTAGATATCGGTTATCGATTAGTGCTA | 0.663 z-score |
| GGATGAAGCGCTTCTCGAGTGGTGCTA | -0.872 z-score |
| GACGGAATGGGGTTTCGGGACGTGCTA | 1.31 z-score |
| GACGAACTGAGTTTCGGGACGTGCTAG | 2.53 z-score |

Mixed results
| Substance | target | assay | test system | conditions | scale | endpoint | result |
| --- | --- | --- | --- | --- | --- | --- | --- |
| PhoQ, residues 284 288 289 292 302 303 HSSMNL | PhoP, residues 12 14 15 18 19 IFFTR (Escherichia coli, UniProt P23836) | Sort-seq, item: YFP reporter | E. coli | PhoQ-PhoP variant library, added: 10 µM Mg2+ | baseline: high Mg2+ state, higher = stronger signaling | fold induction | 10.5 |

Some of these lines once more (set 3):
| Oligonucleotide | log fluorescence |
| --- | --- |
| TTAGATATCGGTTATCGATTAGTGCTA | 0.663 z-score |
